Assay results of several laboratories.
A part holds a random share of what one study measured. Changes are numbered by the printed parent chain.

Series 1 — target: CCND3, cyclin fold, Cln2 fusion (human); method: yeast growth competition, sequencing; matrix: yeast; setting: weak parent motif; relative to: not given; reading: higher = stronger binding
Starting sequence: CDC6 docking peptide (human); TLKGRRLVFDNQL
Under “normalised enrichment score”, `L2K` is recorded as 0.141.
`L7T` — result for “normalised enrichment score”: 0.0729.
`Q12C` — result for “normalised enrichment score”: 0.0622.
For `L2R`, “normalised enrichment score” read 0.253.
For `L7D`, “normalised enrichment score” read 0.109.
`K3M` — result for “normalised enrichment score”: 0.144.
`R6E`: “normalised enrichment score” 0.06.
`D10N` — result for “normalised enrichment score”: 0.182.
Under “normalised enrichment score”, `N11G` is recorded as 0.0499.
`R5P` — result for “normalised enrichment score”: 0.0293.
Under “normalised enrichment score”, `L7Q` is recorded as 0.173.
`F9G` — result for “normalised enrichment score”: 0.0994.
`K3P` — result for “normalised enrichment score”: 0.0483.
`L7I` — result for “normalised enrichment score”: 0.119.
`N11K`: “normalised enrichment score” 0.141.
`L13G`: “normalised enrichment score” 0.116.
`L13T` — result for “normalised enrichment score”: 0.00871.
For `G4A`, “normalised enrichment score” read 0.133.
`K3T`: “normalised enrichment score” 0.159.
`L13S`: “normalised enrichment score” 0.158.

Series 2 — method: protein binding microarray; molecule type: double-stranded DNA, one strand shown; matrix: in vitro; tested at: not given; relative to: not given; reading: higher = stronger binding
Target: Histone acetyltransferase KAT6A, both winged helices, GST fusion (KAT6A, Homo sapiens, UniProt Q92794, residues 1-181)
Setting: 8-mer, flanks averaged, mean of 2 arrays, mostly near background
Target sequence (chain): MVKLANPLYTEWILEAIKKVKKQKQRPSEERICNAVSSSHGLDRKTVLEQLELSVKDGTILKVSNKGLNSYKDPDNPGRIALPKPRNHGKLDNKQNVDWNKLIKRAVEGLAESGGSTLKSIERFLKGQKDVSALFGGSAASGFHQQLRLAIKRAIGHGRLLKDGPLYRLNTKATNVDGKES
`CATGCAAC` gave an E-score of -0.0332.
For `CTAAAGAA`, the E-score was -0.0586.
`CGCGGCCG` has an E-score of 0.409.
With `ATGAGGAC` the E-score was -0.0386.
`ATAGATAA` has an E-score of -0.103.
With `ACATTCGT` the E-score was -0.122.
`CCTGACCC` has an E-score of 0.0193.
With `CAAGGGAC` the E-score was -0.0917.
`ATTAGCGA` has an E-score of 0.094.
With `CGTGGGCA` the E-score was -0.072.
`CCCGCCGC` has an E-score of 0.345.
`CTAGTCCA` gave an E-score of -0.16.
For `AATAGAAC`, the E-score was 0.0169.
For `ACCTTAGT`, the E-score was -0.179.
`AATGACGA` gave an E-score of -0.163.
With `CCTCTCCG` the E-score was 0.0204.
`CGATTCCG` gave an E-score of 0.255.
For `CATGGGGG`, the E-score was -0.255.
For `CACATTGG`, the E-score was -0.0883.
`ACATCATA` gave an E-score of -0.0457.
The E-score of `AGAATTGC` is reported as 0.0233.
For `CAAGAACC`, the E-score was -0.0227.
The E-score of `ACTACTGA` is reported as -0.176.
The E-score of `GGCCACCC` is reported as -0.0307.
With `GAATGTAC` the E-score was 0.0802.

Series 3 — target: JUND, bZIP domain (human); method: DHFR protein complementation; matrix: yeast; relative to: wild-type JUN-FOS pair; reading: higher = stronger binding
Setting: single substitutions, most at no-binding floor
Starting sequence: JUN, bZIP domain (human); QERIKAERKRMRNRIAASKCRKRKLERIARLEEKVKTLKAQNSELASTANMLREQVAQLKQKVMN; partner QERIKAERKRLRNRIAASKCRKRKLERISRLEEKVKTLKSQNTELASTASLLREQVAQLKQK
For `A46K`, the binding fitness was -0.621 natural log.
`M51I` gave a binding fitness of -0.77 natural log.
`E33W` gave a binding fitness of -1.01 natural log.
`A57E` has a binding fitness of -0.486 natural log.
With `Q41H` the binding fitness was -0.985 natural log.
`K36S` gave a binding fitness of -0.864 natural log.
With `E54S` the binding fitness was -1 natural log.
`A40I` gave a binding fitness of -0.782 natural log.
`K36M` has a binding fitness of -0.654 natural log.
With `K39S` the binding fitness was -0.574 natural log.
The binding fitness of `E44A` is reported as -0.785 natural log.
`T48H` gave a binding fitness of -0.907 natural log.
`E33D` gave a binding fitness of -0.741 natural log.
For `L52Y`, the binding fitness was -1.18 natural log.

Series 4 — method: RNA Bind-n-Seq; molecule type: RNA; matrix: in vitro; tested at: 200 nM; setting: whole 134-nt RNA, ends assumed; together with: 150 mM KCl; relative to: input library; reading: higher = stronger binding
Target: Ras GTPase-activating protein-binding protein 1, full length (G3BP1, Homo sapiens, UniProt Q13283)
Sequence of UniProt Q13283 (whole entry, looked up): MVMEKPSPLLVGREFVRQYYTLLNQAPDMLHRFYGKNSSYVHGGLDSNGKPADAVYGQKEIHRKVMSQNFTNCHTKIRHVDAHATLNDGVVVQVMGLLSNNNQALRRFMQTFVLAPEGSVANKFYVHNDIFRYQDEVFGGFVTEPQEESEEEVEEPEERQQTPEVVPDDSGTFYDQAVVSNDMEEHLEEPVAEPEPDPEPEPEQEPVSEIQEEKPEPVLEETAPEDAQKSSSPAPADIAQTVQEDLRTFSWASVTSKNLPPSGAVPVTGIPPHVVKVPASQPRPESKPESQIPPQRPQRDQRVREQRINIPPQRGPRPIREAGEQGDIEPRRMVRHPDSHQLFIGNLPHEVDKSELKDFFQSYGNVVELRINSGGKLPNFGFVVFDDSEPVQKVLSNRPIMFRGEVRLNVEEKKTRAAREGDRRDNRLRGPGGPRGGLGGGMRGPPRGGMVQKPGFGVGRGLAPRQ
`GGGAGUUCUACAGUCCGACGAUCUGGCCCUAGUGGCAUGCGGGGAGGAAGAGGUGGCCUCAUGGAUCGUGGUGGUCCCGGUGGAAUGUUCAGAGGUGGCCGUGGUGGAGACAGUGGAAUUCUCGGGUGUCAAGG` has a log2 enrichment of 0.218.
With `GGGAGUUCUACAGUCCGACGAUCUAACUUUAGAGGAGGAUCUGAUGGAUAUGGCAGUGGACGUGGAUUUGGGGAUGGCUAUAAUGGGUAUGGAGGAGGACCUGGAGGUGGCUAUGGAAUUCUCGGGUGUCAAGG` the log2 enrichment was 0.385.
For `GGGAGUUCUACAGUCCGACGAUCUUUCACUUCCAGCCAGCUGUGAAGAAGGUGAGCUUGCCUUCCAUCUUCCCCCCUAUCCGCCGCGUAUCUCCGUCGUCUGCAAGCGCGUGAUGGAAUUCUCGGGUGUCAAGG`, the log2 enrichment was 0.148.
With `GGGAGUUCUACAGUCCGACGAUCCUGUGCUACACAUCGUAUGUACCGAAUCGGGGUUUUUUUGGUUUUUUUGGGUUUUUUUGGGGAAAGUAUUAUGUUACGCCGUUCGGAUCUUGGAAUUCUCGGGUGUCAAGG` the log2 enrichment was -0.949.
The log2 enrichment of `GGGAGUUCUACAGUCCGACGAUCUGUGCUACACAUCGUAUGUACCGAAUCGGGGUUUUUUUGGGGUUUUUUUGGUUUUUUUGGGGAAAGUAUUAUGUUACGCCGUUCGGAUCUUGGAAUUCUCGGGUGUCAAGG` is reported as -0.669.
The log2 enrichment of `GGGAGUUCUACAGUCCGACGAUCCCUGUGCUACACAUCGUAUGUACCGAAUCGGGAAAAAAAGGGAAAAAAAGGAAAAAAAGGGAAAGUAUUAUGUUACGCCGUUCGGAUCUGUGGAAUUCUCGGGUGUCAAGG` is reported as -0.865.
`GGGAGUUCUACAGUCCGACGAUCGCAGGAAGUAAAAUCAAAUGGAAAUGCUUCGGAUAGUGGCAGGGGUGGGGGUUGCUAAGGAAAGGGUGGGAUGGGAGUGGGUAAAGAGUUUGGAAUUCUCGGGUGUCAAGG` has a log2 enrichment of 1.11.
For `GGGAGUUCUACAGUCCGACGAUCUGUGGAGGAGACGGCCGACUCGACGCUGUGCCACAUCCUGAACCUGUACCGGCGGGCCACCUGGCUGCACCAGGCGCUGCGGGAGGGCACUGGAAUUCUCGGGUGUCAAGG`, the log2 enrichment was -0.901.
The log2 enrichment of `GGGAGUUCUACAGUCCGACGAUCCCUGUGCUACACAUCGUAUGUACCGAAUCAAACCCCCCCAAACCCCCAAACCCCCCCAAAAAAGUAUUAUGUUACGCCGUUCGGAUCUGCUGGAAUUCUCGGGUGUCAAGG` is reported as 1.37.
`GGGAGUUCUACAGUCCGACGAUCGCAGGAAGUAAAAACAAAUGGAAAUGCUUCGGAUAGUGGCAGGGGUGGGGGUUGCUAAGGAAAGGGUCGGAUGGGAGUGGGUAAAGAGUUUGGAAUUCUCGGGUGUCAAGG` gave a log2 enrichment of 1.12.

Other studies, line by line
With `PhoQ, residues 284 288 289 292 302 303 SACGEM` the fold induction was 2.71 (PhoP, residues 12 14 15 18 19 QQAYL (Escherichia coli, UniProt P23836); Sort-seq, refers to: YFP reporter; E. coli; PhoQ-PhoP variant library, together with: 10 µM Mg2+; relative to: high Mg2+ state, higher = stronger signaling).

Some of these lines once more (series 1):
`L7I` — result for “normalised enrichment score”: 0.119.
`K3M` — result for “normalised enrichment score”: 0.144.
`L13T` — result for “normalised enrichment score”: 0.00871.
`L7T` — result for “normalised enrichment score”: 0.0729.
